Experimental data pooled from the literature.
Values joined by “and” are separate records of one study, mostly repeats; a detail may differ. ± marks the error that the study gave.
Oprd1: Delta-type opioid receptor (Oprd1, Rattus norvegicus, UniProt P33533)
Chain of UniProt P33533 (whole entry, looked up): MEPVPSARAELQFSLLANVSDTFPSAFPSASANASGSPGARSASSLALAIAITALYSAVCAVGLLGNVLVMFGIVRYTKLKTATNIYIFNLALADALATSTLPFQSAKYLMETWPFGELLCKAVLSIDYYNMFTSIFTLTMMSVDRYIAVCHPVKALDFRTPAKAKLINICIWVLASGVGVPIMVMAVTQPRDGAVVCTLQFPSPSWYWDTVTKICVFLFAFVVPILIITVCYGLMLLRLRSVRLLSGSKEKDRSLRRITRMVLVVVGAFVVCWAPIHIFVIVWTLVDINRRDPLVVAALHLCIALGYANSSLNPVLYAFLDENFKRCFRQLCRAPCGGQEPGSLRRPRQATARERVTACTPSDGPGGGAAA
Lipe: Lipe (Mus musculus, UniProt P54310)
Chain of UniProt P54310 (whole entry, looked up): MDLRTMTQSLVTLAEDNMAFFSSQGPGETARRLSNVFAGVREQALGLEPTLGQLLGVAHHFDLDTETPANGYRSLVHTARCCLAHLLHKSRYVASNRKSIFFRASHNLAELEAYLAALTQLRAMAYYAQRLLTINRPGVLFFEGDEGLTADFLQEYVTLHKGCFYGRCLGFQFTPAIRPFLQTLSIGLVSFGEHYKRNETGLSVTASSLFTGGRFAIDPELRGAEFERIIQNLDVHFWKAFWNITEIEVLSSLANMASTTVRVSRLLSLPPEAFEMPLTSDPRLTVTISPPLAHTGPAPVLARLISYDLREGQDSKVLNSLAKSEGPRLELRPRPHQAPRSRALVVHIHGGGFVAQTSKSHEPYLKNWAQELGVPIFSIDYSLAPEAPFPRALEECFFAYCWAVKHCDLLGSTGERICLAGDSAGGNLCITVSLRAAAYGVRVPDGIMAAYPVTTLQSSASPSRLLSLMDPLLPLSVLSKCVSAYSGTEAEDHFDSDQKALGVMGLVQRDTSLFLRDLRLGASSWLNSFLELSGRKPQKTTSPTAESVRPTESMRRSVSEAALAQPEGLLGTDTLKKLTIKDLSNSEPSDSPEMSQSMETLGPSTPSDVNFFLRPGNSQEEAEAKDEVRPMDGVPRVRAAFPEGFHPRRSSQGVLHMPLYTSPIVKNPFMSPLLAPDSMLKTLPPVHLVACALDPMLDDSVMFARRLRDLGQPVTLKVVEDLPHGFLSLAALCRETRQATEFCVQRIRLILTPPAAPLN
IRAK1: Interleukin-1 receptor-associated kinase 1 (IRAK1, Homo sapiens, UniProt P51617)
Chain of UniProt P53778 (whole entry, looked up): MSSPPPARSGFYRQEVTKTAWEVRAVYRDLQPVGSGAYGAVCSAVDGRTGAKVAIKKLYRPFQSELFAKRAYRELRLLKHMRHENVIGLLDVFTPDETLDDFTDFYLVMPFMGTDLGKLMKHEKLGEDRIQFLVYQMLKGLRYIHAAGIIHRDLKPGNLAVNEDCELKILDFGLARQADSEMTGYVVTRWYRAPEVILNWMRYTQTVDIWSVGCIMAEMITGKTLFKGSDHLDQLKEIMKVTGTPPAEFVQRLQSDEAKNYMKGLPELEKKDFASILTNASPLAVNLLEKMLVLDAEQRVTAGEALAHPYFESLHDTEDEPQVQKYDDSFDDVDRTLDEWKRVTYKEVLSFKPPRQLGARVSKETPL
Chain of UniProt Q6DWJ6 (whole entry, looked up): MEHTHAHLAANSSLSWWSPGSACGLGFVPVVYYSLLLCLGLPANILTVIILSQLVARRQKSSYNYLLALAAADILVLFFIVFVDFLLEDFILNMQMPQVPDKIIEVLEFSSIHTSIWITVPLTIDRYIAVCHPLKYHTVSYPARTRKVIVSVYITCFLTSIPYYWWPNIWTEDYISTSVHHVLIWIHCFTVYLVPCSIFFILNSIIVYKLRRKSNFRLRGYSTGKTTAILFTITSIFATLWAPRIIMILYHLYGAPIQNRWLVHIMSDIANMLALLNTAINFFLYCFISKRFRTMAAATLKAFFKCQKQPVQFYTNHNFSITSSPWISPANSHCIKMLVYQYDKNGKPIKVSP
Chain of UniProt P51617 (whole entry, looked up): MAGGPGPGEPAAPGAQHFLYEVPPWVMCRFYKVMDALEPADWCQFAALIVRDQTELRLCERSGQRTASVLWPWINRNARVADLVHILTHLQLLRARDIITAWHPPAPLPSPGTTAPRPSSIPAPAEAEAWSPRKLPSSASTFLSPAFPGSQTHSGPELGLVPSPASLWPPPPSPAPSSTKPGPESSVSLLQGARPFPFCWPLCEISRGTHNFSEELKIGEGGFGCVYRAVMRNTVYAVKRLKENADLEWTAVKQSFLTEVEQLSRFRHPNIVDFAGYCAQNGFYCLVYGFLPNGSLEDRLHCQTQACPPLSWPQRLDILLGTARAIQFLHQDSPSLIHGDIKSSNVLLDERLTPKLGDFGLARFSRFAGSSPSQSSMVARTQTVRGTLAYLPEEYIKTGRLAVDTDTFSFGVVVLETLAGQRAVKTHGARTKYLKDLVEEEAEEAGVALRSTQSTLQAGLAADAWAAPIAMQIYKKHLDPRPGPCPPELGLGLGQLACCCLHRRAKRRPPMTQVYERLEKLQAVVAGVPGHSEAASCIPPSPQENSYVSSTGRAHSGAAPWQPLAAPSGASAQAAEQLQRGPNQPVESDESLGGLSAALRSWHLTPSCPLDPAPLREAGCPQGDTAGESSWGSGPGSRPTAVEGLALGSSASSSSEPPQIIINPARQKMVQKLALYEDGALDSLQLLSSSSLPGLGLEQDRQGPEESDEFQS
Chain of UniProt Q9UM07 (whole entry, looked up): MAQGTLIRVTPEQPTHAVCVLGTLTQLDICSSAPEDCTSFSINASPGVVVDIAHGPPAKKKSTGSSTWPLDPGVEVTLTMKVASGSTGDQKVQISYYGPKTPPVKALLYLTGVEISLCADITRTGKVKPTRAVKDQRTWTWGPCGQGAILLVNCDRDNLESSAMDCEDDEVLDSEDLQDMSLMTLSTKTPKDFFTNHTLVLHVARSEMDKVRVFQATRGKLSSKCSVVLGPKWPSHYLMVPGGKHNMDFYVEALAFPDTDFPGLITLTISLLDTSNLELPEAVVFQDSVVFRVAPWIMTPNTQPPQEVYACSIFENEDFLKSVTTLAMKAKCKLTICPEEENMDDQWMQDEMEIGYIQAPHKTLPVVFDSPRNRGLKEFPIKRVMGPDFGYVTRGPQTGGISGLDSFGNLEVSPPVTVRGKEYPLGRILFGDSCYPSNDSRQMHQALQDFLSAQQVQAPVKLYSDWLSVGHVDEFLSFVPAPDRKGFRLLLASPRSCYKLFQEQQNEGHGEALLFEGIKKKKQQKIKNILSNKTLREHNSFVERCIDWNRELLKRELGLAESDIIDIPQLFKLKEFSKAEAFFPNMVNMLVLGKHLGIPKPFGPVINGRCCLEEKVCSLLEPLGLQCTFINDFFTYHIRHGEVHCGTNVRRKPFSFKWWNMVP
Chain of UniProt P38489 (whole entry, looked up): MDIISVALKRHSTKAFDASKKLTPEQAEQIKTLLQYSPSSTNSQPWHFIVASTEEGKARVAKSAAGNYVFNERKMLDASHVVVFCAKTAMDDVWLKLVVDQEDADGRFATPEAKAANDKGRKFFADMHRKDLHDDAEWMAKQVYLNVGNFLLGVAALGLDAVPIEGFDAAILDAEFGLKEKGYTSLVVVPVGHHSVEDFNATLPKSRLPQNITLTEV
Chain of UniProt P53667 (whole entry, looked up): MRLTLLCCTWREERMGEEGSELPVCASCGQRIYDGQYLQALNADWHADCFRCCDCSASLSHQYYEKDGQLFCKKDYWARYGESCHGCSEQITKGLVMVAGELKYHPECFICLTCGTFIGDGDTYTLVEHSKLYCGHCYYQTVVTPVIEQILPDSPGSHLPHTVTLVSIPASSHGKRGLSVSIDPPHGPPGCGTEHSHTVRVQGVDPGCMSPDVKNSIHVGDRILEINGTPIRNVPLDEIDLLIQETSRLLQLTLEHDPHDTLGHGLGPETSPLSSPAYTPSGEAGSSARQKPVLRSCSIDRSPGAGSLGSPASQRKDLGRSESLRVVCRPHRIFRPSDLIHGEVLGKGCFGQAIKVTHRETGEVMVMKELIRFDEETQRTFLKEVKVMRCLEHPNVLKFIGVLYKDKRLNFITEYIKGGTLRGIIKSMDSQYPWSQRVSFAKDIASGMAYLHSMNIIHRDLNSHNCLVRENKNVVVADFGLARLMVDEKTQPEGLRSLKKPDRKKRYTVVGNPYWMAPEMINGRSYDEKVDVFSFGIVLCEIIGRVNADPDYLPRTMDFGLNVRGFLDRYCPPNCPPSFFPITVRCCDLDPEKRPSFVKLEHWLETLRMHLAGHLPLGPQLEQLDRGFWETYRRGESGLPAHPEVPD
Chain of UniProt P07384 (whole entry, looked up): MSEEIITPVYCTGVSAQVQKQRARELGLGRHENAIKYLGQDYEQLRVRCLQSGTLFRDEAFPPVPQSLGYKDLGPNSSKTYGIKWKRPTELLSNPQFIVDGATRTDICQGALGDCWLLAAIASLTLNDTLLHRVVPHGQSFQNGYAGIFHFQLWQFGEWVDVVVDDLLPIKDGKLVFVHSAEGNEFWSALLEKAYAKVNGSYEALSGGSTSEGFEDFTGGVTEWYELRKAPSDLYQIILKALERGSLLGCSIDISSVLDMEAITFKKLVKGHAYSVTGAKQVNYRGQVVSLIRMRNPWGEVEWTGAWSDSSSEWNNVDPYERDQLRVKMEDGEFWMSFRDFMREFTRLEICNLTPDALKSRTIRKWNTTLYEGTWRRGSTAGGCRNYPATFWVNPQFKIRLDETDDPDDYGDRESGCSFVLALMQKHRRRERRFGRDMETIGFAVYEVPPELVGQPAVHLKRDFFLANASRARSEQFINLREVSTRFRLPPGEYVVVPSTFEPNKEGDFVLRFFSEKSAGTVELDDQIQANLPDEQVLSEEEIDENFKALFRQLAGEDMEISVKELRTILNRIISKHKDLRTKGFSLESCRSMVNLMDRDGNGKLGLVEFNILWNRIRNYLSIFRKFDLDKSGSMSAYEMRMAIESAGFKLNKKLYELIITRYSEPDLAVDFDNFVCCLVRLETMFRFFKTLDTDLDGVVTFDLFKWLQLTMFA

N[C@H](C(=O)N1CCCC1)C1CCN(c2nccc3c(-c4ncc(Cl)cc4Cl)cccc23)CC1
kcat (Protein-arginine deiminase type-4 (PADI4, Homo sapiens, UniProt Q9UM07); enzyme activity; 0.6144 µM, low-affinity site, added: Ca2+ 0.25 mM): 0.0768 s⁻¹ and 0.0481 s⁻¹

Cc1cc(-c2ccc3ccccc3c2)nnc1NCCN1CCN(C)CC1
antagonist activity (Histamine H1 receptor (HRH1, Homo sapiens, UniProt P35367); antagonist; concentration not given): negative

C=CC(=O)NC[C@H](NC(=O)[C@H](CC1CCCCC1)NC(=O)[C@H](CCC(N)=O)NC(C)=O)C(=O)N[C@@H](CC(C)C)C(=O)N[C@@H](Cc1ccccc1)C(=O)O
-TΔS (Beta sliding clamp (Escherichia coli, UniProt P0A988); binding, isothermal titration calorimetry; 37 °C): 4.9 kcal/mol

CC(C)(C)C(=O)OCOP(=O)(OCOC(=O)C(C)(C)C)C1CCCN(O)C1=O (centres unmarked)
log GI50 (BT-549): -6.5 log M

Oc1ccc(C[C@@H]2CN([C@H](Cc3ccc4ccccc4c3)CN3CCC[C@H]3CN3CCNC[C@@H]3Cc3ccc4ccccc4c3)CCN2CCc2ccc(Cl)c(Cl)c2)cc1
remaining binding (Oprd1; radioligand binding; rat brain membranes; 500 nM, pH 7.5, 25 °C, added: 2 nM [3H]DPDPE): 86.2%

CC[C@H](C)[C@H](NC(=O)[C@H](CCCCN)NC(=O)CNC(=O)[C@H](CC(C)C)NC(=O)[C@H](Cc1ccccc1)NC(=O)[C@H](CCCCN)NC(=O)[C@H](CO)NC(=O)[C@H](Cc1ccccc1)NC(=O)[C@H](Cc1c[nH]c2ccccc12)NC(=O)[C@H](CCC(N)=O)NC(=O)[C@@H](NC(=O)[C@H](Cc1ccccc1)NC(=O)CCCCCNC(=O)CN1CCN(CC(=O)O)CCN(CC(=O)O)CCN(CC(=O)O)CC1)C(C)C)C(=O)N[C@@H](CCC(=O)O)C(=O)N1CCC[C@H]1C(=O)N[C@@H](CC(=O)O)C(=O)N[C@H](C(=O)N[C@@H](CO)C(=O)N[C@@H](CCC(N)=O)C(=O)N[C@H](C(=O)N[C@@H](CCC(N)=O)C(=O)N[C@@H](CC(=O)O)C(=O)N1CCC[C@H]1C(=O)N[C@@H](CC(N)=O)C(=O)N[C@@H](CC(=O)O)C(=O)N[C@@H](CCC(N)=O)C(=O)N[C@@H](Cc1ccc(O)cc1)C(=O)N[C@@H](CCC(=O)O)C(=O)N1CCC[C@H]1C(=O)N[C@@H](Cc1ccccc1)C(=O)O)C(C)C)C(C)C [copper-64 labelled]
tissue uptake (C57BL/6 mice, male, naive, brown fat; 24 h): 3.15 ± 0.7 %ID/g

O=C1NC(=O)c2c1c1cc(F)c[n+]3c1c1c2c2cc(O)ccc2[n]1[Ru-4]312([N]=C=S)[S+]3CC[S+]1CC[S+]2CC3 (centres unmarked)
remaining activity (Maternal embryonic leucine zipper kinase (MELK, Homo sapiens, UniProt Q14680); enzyme activity; 100 nM, human enzyme, added: 10 µM ATP; reference: untreated): 1%

CS(C)(=O)=Nc1ccc(-c2ccc(-c3nc4cc(O[C@@H]5CO[C@H]6[C@@H]5OC[C@H]6O)[nH]c4cc3F)cc2)cc1
inhibition (LIM domain kinase 1 (LIMK1, Homo sapiens, UniProt P53667); enzyme activity, inhibitor; 10 µM): 3%

[CH3][Ti+2][O]C(=O)c1ccc([S][Au][PH](c2ccccc2)(c2ccccc2)c2ccccc2)cc1.c1cc[cH-]c1.c1cc[cH-]c1
remaining activity (Mitogen-activated protein kinase 12 (MAPK12, Homo sapiens, UniProt P53778); kinase activity; 1 µM, added: ATP 10 µM): 111%

N=C(N)N1CCc2ccccc2C1
ligand efficiency (Transmembrane protease serine 2, peptidase domain (TMPRSS2, Homo sapiens, UniProt O15393)): 0.42 kcal/mol

CC[C@H](C)[C@H](NC(=O)[C@H](CO)NC(=O)[C@H](Cc1ccc(O)cc1)NC(=O)[C@H](Cc1ccc(O)cc1)NC(=O)[C@H](CC(N)=O)NC(=O)CNC(=O)[C@H](CO)NC(=O)[C@H](Cc1ccc(O)cc1)NC(=O)[C@H](CO)NC(=O)[C@H](CO)NC(=O)[C@H](CC(N)=O)NC(=O)COCCOCCNC(=O)CN1CCN(CC(=O)O)CCN(CC(=O)O)CCN(CC(=O)O)CC1)C(=O)N[C@@H](CC(C)C)C(N)=O [copper-64 labelled]
tissue uptake (dynamic PET; KPC mouse Ptf1a-CreER tdTomato, pancreas; intravenous, 4.6 MBq/mouse, 7.5 min, 84 d after tamoxifen): 12 %ID/mL

Cc1ccc(NS(=O)(=O)c2c(C(=O)N3CCCCCC3)c(C)n(C)c2C)c(Cl)c1
viability (CV-1; African green monkey cells; 11.11 µM, 60 (unit not given)): 96.2% and 102%

COc1ccccc1-c1n[nH]c2nc(NC3CCN(C(=O)Cc4ccc(F)cc4F)CC3)ncc12
relative abundance (bead binding, competition bead pull-down, measured: LINJ.35.3900; Leishmania donovani extract; 10 µM; reference: vehicle): 1.07

Cc1ccc(N2CC3CCC(C2)N3C)cc1C(=O)N[C@H](C)c1cc(-c2cnn(C)c2)nc2ccccc12
remaining activity (Calpain-1 catalytic subunit (CAPN1, Homo sapiens, UniProt P07384); enzyme activity; 10 µM, 0.5 h): 109%

CCCC[C@H]1CNCCN1C[C@@H]1CCCN1C[C@@H](Cc1ccc2ccccc2c1)N1CCN(CCc2ccc(Cl)c(Cl)c2)[C@H]([C@H](C)CC)C1
remaining binding (Oprd1; radioligand binding; rat brain membranes; 500 nM, pH 7.5, 25 °C, added: 2 nM [3H]DPDPE): 88.4%

CCN(N=Cc1cnc2ccc(Br)cn12)S(=O)(=O)c1cc([N+](=O)[O-])ccc1C
IC50 fold change (Phosphatidylinositol 4,5-bisphosphate 3-kinase catalytic subunit beta isoform (PIK3CB, Homo sapiens, UniProt P42338, M783K); reference: mutant over wild-type p110β): 0.5

CCOC(=O)[C@@H]1Cc2c(cc([N+](=O)[O-])cc2[N+](=O)[O-])[C@H](O)[C@]12C(=O)Nc1ccc(Br)cc12
remaining binding (Serine/threonine-protein kinase 32C (STK32C, Homo sapiens, UniProt Q86UX6); binding, competition with immobilised ligand; 0.1 µM): 67%

O=C(N1CCCCC1)n1ccnn1
activity ratio (Lipe; enzyme activity, inhibitor, competitive ABPP-SILAC; mouse T-cells; concentration not given, 4 h, treated in situ; reference: DMSO): 1.93

C#CCCCCOc1ccc2c(c1)CCCN2C(=O)CCl
reactivity ratio (Serine/threonine-protein kinase MRCK beta (CDC42BPB, Homo sapiens, UniProt Q9Y5S2); mass spectrometry profiling; H460 cell lysate; 100 µM over 10 µM, UniProt Q9Y5S2; reference: high over low concentration): 1.52

CC(=O)N[C@H]1[C@@H](O)[C@H](O)[C@@H](CO)O[C@H]1O
TΔS (N-acetylmannosamine kinase (nanK, Haemophilus influenzae, UniProt Q4QP43, T131V); binding): 1.94 kcal/mol

CCNC(=S)NN=Cc1c2ccccc2cc2ccccc12.Cc1ccc(C(C)C)cc1.[Cl-].[Cl-].[Ru+2]
binding constant (Albumin (ALB, Homo sapiens, UniProt P02768); fluorescence titration, Scatchard; 308 K): 13.8 ± 0.02 10⁴ M⁻¹

CCn1nc(Cl)c2c1-c1cnc(N)c(c1)O[C@H](C)c1cc(F)ccc1-c1nn(C)cc1C2
selectivity ratio (IRAK1; kinase activity, inhibitor; reference: IC50 IRAK1 over IC50 ALK): 361 fold

C/C(=N\OCCCN1CCCCC1)c1ccc(C(F)(F)F)cc1
activation (5-hydroxytryptamine receptor 1A (HTR1A, Homo sapiens, UniProt P08908); agonist, cAMP; 10 µM): 4.54%

Oc1ccc(C[C@@H]2CN([C@H](Cc3ccc4ccccc4c3)CN3CCC[C@H]3CN3CCNC[C@@H]3Cc3ccc4ccccc4c3)CCN2CCCC2CCCC2)cc1
remaining binding (Oprd1; radioligand binding; rat brain membranes; 500 nM, pH 7.5, 25 °C, added: 2 nM [3H]DPDPE): 90.8%

CC(=O)NCC(=O)N[C@@H](CO)C(=O)N[C@@H](CS)C(=O)N[C@@H](CCCNC(=N)N)C(=O)N[C@@H](CCCCN)C(=O)N[C@@H](CCCNC(=N)N)C(=O)N[C@@H](CC(N)=O)C(=O)N[C@@H](CCCNC(=N)N)C(=O)N[C@@H](CO)C(=O)N1CCC[C@H]1C(=O)N[C@@H](CCC(=O)O)C(=O)N[C@@H](CCCNC(=N)N)C(N)=O
ΔG (WD repeat-containing protein 5 (WDR5, Homo sapiens, UniProt P61964); binding, competitor of LANA peptide, ITC; pH 7.0, 20 °C, WIN motif peptide): -6.54 kcal/mol

COc1ccccc1-c1n[nH]c2nc(N[C@H]3CC[C@H](NS(=O)(=O)CC(C)C)CC3)ncc12
relative abundance (bead binding, competition bead pull-down, measured: LINJ.25.2090; Leishmania donovani extract; 10 µM; reference: vehicle): 1.48

N[C@H](Cc1ccccc1)P(=O)(O)O
reaction rate reduction (PAL1 (Petroselinum crispum, UniProt P24481); L-Phe deamination, inhibitor, UV steady-state kinetics; 1000 µM, added: L-Phe 1 mM): 22%

CC[C@H](C)[C@H](NC(=O)[C@H](CCCNC(=N)N)NC(=O)[C@H](CCCNC(=N)N)NC(=O)[C@H](CC(C)C)NC(=O)[C@H](Cc1ccccc1)NC(=O)CNC(=O)CNC(=O)[C@@H](N)Cc1ccc(O)cc1)C(=O)N[C@@H](CCCNC(=N)N)C(=O)N1CCC[C@H]1C(=O)N[C@@H](CCCCN)C(=O)N[C@@H](CC(C)C)C(=O)N[C@@H](CCCCN)C(=O)O
Emax (Probable G-protein coupled receptor 139 (GPR139, Homo sapiens, UniProt Q6DWJ6); Gαi3 activation, agonist, BRET; HEK293T/17; 40 µM): 52.7% and 47.3%

Cc1cc(C(=O)Nc2nc3cccc(C)c3n2[C@H]2CCCCN(C(=O)/C=C/CN(C)C)C2)ccn1
multinucleated cells (Trypanosoma brucei; propidium iodide flow cytometry; bloodstream form; concentration not given, 6 h): 7.73%

Cc1sc2c(c1C)C(c1ccc(Cl)cc1)=NC(CC(=O)OC(C)(C)C)c1nnc(C)n1-2 (centres unmarked)
inhibition (Type-1 angiotensin II receptor (AGTR1, Homo sapiens, UniProt P30556); ligand displacement, radioligand; 1 µM): 0%

CN(C)[C@H]1C[C@@]23CC[C@@]4(O2)C(=CC[C@]2(C)[C@@H](c5ccc6ccncc6c5)CC[C@H]24)C=C3[C@@H](O)[C@@H]1O
inhibition (Activated CDC42 kinase 1 (TNK2, Homo sapiens, UniProt Q07912); ATP probe labelling, inhibitor, KiNativ profiling; 1 µM): -2%

CN(C)CCCSC(=S)N1CCN(C(=O)/C=C/c2coc3ccccc3c2=O)CC1
MST response (Nucleoprotein (N, Tomato spotted wilt virus, UniProt P25999, R94A); binding, microscale thermophoresis; 62.5 µM; dose series): 844 a.u.

O=C(CF)N[C@H]1[C@H]([C@H](O)[C@H](O)CNC(=O)c2ccc(-c3ccccc3)cc2)O[C@@](OCc2cccc(Cl)c2Cl)(C(=O)O)C[C@@H]1O
binding stoichiometry (B-cell receptor CD22 (CD22, Homo sapiens, UniProt P20273); isothermal titration calorimetry; concentration not given): 1.33 ± 0.29

CC(C)CC(O)(CC(C)C)c1cn(C(=O)N2CCCC2)nn1
ratio of ratios (Lipe; enzyme activity, inhibitor; mouse, brain; i.p., 0.8 mg/kg, 4 h, protein level; reference: vehicle): 0.52

COc1c(N2CC3CCCNC3C2)c(F)cc2c(=O)c(C(=O)OCc3ccc([N+](=O)[O-])s3)cn(C3CC3)c12 (centres unmarked)
kcat (Oxygen-insensitive NAD(P)H nitroreductase (nfsB, Escherichia coli K-12, UniProt P38489); substrate; added: NADH 100 µM): 0.86 s⁻¹

C=C(c1ccccc1)[C@@H](N)P(=O)(O)O
ΔH (PAL1 (Petroselinum crispum, UniProt P24481, Y110F); binding, ITC): -10.8 kcal/mol

O=C1NC2(CC2)COc2ncc(F)cc2[C@H]2COCCN2c2ccn3ncc1c3n2
serum hepatic lipase activity (Sprague-Dawley rat, male, serum; oral, 10 mg/kg/day, end of treatment, 4-week subacute toxicity): 3.2 ± 0.8 U/L

CC(C)[C@H]1NC(=O)C[C@H]2/C=C/CCSSC[C@@H](NC1=O)C(=O)N[C@H](Cc1cccc3ccccc13)C(=O)NCC(=O)O2
inhibition (IRAK1; enzyme activity, inhibitor; 10 µM): -2.8%

Excerpt of the above:
N=C(N)N1CCc2ccccc2C1
ligand efficiency (Transmembrane protease serine 2, peptidase domain (TMPRSS2, Homo sapiens, UniProt O15393)): 0.42 kcal/mol

CC[C@H](C)[C@H](NC(=O)[C@H](CO)NC(=O)[C@H](Cc1ccc(O)cc1)NC(=O)[C@H](Cc1ccc(O)cc1)NC(=O)[C@H](CC(N)=O)NC(=O)CNC(=O)[C@H](CO)NC(=O)[C@H](Cc1ccc(O)cc1)NC(=O)[C@H](CO)NC(=O)[C@H](CO)NC(=O)[C@H](CC(N)=O)NC(=O)COCCOCCNC(=O)CN1CCN(CC(=O)O)CCN(CC(=O)O)CCN(CC(=O)O)CC1)C(=O)N[C@@H](CC(C)C)C(N)=O [copper-64 labelled]
tissue uptake (dynamic PET; KPC mouse Ptf1a-CreER tdTomato, pancreas; intravenous, 4.6 MBq/mouse, 7.5 min, 84 d after tamoxifen): 12 %ID/mL

Cc1ccc(NS(=O)(=O)c2c(C(=O)N3CCCCCC3)c(C)n(C)c2C)c(Cl)c1
viability (CV-1; African green monkey cells; 11.11 µM, 60 (unit not given)): 96.2% and 102%

COc1ccccc1-c1n[nH]c2nc(NC3CCN(C(=O)Cc4ccc(F)cc4F)CC3)ncc12
relative abundance (bead binding, competition bead pull-down, measured: LINJ.35.3900; Leishmania donovani extract; 10 µM; reference: vehicle): 1.07

Cc1ccc(N2CC3CCC(C2)N3C)cc1C(=O)N[C@H](C)c1cc(-c2cnn(C)c2)nc2ccccc12
remaining activity (Calpain-1 catalytic subunit (CAPN1, Homo sapiens, UniProt P07384); enzyme activity; 10 µM, 0.5 h): 109%

CCCC[C@H]1CNCCN1C[C@@H]1CCCN1C[C@@H](Cc1ccc2ccccc2c1)N1CCN(CCc2ccc(Cl)c(Cl)c2)[C@H]([C@H](C)CC)C1
remaining binding (Oprd1; radioligand binding; rat brain membranes; 500 nM, pH 7.5, 25 °C, added: 2 nM [3H]DPDPE): 88.4%
